# Values quoted from earlier work that unrelated publications cite.
# Compare with care: the assays were run in different laboratories. pIC50, pKi: −log10 of the molar value.
# Sequence of UniProt P10635 (whole entry, looked up): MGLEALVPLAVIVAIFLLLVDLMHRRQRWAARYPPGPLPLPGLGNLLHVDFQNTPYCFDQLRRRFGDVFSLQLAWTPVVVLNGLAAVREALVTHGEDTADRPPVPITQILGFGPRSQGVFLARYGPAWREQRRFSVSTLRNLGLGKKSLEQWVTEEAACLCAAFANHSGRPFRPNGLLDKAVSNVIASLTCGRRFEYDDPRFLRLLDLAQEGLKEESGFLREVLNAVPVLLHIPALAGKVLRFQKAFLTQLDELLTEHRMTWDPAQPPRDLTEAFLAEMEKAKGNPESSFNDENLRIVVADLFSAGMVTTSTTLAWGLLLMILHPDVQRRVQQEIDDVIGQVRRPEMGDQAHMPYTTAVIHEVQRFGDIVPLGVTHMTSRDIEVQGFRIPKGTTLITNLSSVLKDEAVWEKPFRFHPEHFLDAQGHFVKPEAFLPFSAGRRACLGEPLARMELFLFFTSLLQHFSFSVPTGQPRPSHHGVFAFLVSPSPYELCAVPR
# Sequence of UniProt P08908 (whole entry, looked up): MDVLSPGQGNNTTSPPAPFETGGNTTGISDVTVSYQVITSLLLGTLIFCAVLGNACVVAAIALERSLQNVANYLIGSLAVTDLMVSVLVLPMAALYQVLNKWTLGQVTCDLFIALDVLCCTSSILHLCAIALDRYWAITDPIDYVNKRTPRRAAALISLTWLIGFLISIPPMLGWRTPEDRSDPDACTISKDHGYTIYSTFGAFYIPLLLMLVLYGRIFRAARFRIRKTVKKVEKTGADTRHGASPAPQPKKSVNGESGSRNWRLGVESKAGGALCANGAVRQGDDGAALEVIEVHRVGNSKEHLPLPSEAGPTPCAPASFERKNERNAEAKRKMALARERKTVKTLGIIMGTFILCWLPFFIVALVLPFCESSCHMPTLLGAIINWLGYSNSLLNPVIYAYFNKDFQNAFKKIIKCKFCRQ
SMILES,target,assay,test system,conditions,scale,endpoint,result
COc1ccc(CN(C(=O)[C@@H](N)Cc2c(C)cc(C(N)=O)cc2C)[C@@H](C)c2nc(-c3ccccc3)c[nH]2)cc1C(=O)O,P-glycoprotein,"transport, inhibitor",,162-fold plasma level at 100 mg,,inhibition,6.25%
CNC(C)Cc1ccc2c(c1)OCO2 (stereo not drawn),CYP2D6,inhibitor,human liver microsomes,,,pKi,4.35 to 5.06
CCN1C[C@]2(COC)[C@H](O)C[C@H](OC)[C@@]34[C@@H]5C[C@@]6(O)[C@H](OC(=O)c7ccccc7)[C@@H]5[C@@](OC(C)=O)([C@@H]([C@H](OC)[C@H]23)[C@@H]14)[C@@H](O)[C@@H]6OC,OCT2,"transport, inhibitor",,added: tetraethylammonium,,pIC50,4.22
COc1ccc2c(c1)[C@]13CCCC[C@@H]1[C@H](C2)N(C)CC3,"Cytochrome P450 2D6 (CYP2D6, Homo sapiens, UniProt P10635)",,human extensive metabolizers,added: quinidine,,fraction metabolized,0.98
COc1ccc2c(c1)[C@]13CCCC[C@@H]1[C@H](C2)N(C)CC3,CYP2D6,measured: dextromethorphan to dextrorphan ratio,human,"30 mg, added: simeprevir 150 mg",relative to: with over without simeprevir,metabolic ratio,0.99
C=CCN(CC=C)CCc1c[nH]c2ccccc12,"HTR1A (Homo sapiens, UniProt P08908)",binding,cloned human receptor,added: [3H]8-OH-DPAT,,pKi,7.00
COc1ccsc1CNCC[C@@]1(c2ccccn2)CCOC2(CCCC2)C1,CYP2D6,,human CYP2D6 poor metabolizers,,relative to: extensive metabolizers,clearance,~50%
CN([11CH3])C(=O)C(CCN1CCC(O)(c2ccc(Cl)cc2)CC1)(c1ccccc1)c1ccccc1,"P-glycoprotein, human",measured: 11C radioactivity brain to plasma,healthy human volunteers,"intravenous, dose not given, added: ciclosporin 10 mg/kg intravenous infusion",,brain distribution increase,110%
Cc1ncc2n1-c1ccc(Cl)cc1C(c1ccccc1F)=NC2,CYP3A hepatic,,"healthy human, fed","intravenous, 0.025 mg/kg, cocktail, least squares mean, added: simeprevir 150 mg",relative to: with over without simeprevir,AUC(0-last) ratio,1.1
